Experimental data pooled from the literature.
Each numbered part is a random draw from the data of one study; scales do not carry over between parts.
UniProt Q8NFD2, sequence (whole entry, looked up): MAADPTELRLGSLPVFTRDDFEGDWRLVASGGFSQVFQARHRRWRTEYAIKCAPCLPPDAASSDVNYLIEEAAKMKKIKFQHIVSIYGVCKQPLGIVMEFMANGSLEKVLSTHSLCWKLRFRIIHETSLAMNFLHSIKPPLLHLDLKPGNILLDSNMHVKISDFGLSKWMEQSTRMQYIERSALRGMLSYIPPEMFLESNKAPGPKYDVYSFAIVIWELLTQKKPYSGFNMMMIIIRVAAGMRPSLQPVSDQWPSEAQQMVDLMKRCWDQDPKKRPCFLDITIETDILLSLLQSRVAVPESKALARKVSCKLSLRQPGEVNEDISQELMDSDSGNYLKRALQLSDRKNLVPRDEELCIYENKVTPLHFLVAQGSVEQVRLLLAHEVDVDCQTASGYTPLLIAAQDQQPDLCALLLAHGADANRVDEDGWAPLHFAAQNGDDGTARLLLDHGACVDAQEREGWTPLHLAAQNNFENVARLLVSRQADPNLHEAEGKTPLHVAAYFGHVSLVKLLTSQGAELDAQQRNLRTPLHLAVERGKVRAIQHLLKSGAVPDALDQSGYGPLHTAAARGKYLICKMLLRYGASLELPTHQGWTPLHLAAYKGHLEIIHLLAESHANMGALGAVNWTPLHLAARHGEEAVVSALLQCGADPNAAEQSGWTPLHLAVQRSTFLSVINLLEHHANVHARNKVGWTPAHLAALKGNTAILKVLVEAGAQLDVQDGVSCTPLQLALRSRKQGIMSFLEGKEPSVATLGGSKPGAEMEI
UniProt Q05397, sequence (whole entry, looked up): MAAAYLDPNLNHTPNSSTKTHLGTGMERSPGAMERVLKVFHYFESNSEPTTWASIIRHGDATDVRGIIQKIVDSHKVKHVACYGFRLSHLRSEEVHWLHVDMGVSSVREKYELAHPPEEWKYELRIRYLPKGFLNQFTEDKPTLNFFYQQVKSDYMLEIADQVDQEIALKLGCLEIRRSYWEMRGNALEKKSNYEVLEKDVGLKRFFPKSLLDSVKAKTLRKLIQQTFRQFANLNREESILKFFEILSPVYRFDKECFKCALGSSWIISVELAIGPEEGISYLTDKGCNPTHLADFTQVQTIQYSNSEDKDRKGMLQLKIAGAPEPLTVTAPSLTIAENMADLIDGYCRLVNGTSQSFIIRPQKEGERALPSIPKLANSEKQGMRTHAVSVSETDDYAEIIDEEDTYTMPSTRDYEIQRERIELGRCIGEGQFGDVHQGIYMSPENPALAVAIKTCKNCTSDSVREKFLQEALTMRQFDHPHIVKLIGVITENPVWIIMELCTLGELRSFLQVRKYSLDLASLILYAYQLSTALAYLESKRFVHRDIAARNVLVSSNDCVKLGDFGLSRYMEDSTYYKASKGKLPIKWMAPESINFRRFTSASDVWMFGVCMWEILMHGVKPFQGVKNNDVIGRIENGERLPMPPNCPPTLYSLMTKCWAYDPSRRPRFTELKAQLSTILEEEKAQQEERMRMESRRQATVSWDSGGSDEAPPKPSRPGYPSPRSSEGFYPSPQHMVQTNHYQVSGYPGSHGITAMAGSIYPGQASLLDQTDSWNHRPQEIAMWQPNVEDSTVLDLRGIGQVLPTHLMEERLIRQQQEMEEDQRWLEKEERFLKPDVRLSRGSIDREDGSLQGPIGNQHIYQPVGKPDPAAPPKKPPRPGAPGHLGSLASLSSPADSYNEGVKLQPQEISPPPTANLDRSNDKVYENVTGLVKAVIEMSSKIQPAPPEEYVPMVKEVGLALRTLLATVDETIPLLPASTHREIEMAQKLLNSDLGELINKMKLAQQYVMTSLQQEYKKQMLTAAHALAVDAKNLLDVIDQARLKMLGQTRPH
UniProt Q8TDR2, sequence (whole entry, looked up): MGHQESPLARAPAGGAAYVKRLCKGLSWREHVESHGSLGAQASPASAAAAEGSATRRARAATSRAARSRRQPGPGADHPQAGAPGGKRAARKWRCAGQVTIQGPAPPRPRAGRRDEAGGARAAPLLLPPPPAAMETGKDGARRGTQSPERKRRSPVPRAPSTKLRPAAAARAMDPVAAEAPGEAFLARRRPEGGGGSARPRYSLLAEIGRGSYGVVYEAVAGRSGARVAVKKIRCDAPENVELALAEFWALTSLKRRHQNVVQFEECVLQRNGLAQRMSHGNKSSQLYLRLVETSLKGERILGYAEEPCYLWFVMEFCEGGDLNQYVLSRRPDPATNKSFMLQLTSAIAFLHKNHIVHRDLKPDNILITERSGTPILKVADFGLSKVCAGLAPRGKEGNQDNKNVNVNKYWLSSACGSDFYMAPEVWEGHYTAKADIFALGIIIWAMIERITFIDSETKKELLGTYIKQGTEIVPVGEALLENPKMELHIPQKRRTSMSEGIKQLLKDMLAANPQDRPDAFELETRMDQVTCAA
UniProt Q13705, sequence (whole entry, looked up): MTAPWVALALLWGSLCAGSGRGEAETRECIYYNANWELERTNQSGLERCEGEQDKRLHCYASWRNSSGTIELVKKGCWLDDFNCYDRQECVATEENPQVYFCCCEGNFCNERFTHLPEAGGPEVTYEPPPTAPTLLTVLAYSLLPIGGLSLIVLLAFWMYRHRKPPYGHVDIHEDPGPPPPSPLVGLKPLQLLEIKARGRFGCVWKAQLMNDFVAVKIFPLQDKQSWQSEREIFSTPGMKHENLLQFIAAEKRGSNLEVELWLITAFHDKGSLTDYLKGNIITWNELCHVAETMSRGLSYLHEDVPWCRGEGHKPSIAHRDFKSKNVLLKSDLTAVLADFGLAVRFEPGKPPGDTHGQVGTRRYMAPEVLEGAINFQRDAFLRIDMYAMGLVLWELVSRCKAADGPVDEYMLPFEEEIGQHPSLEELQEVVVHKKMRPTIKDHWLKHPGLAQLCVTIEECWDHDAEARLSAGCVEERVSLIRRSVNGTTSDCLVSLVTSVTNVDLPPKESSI
UniProt P11802, sequence (whole entry, looked up): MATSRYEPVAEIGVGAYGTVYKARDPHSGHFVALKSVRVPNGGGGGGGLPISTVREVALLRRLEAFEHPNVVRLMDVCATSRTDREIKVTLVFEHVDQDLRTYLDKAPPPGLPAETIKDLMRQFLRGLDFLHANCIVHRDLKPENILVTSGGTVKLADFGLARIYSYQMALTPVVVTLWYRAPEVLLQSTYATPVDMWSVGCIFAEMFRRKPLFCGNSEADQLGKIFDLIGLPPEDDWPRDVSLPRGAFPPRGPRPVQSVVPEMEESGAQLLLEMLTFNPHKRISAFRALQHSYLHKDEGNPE
UniProt P42680, sequence (whole entry, looked up): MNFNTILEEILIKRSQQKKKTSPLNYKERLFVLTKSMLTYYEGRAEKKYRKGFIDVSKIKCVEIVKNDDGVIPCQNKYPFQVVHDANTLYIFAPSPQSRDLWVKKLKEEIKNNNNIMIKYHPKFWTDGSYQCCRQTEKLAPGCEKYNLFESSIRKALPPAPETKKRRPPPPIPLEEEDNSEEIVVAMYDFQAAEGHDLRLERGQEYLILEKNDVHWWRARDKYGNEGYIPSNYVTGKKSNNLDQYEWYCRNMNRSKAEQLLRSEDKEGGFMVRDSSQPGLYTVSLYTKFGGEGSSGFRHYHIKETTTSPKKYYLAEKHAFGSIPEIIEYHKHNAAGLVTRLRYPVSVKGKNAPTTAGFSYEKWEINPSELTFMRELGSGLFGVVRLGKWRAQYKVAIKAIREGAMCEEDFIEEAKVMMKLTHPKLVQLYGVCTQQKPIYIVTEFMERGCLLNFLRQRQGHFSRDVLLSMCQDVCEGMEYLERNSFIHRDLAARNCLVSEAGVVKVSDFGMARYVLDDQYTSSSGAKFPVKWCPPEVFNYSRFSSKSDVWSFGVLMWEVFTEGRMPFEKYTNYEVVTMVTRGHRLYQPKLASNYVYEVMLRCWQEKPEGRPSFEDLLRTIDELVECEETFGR

Study 1 — Structure (SMILES): C=CCc1ccc(O)c(-c2ccc(O)c(CC=C)c2)c1; effect on: chloride current; technique: whole-cell voltage clamp
ANO1 del476-501/F623A: Anoctamin-1 (ANO1, Homo sapiens, UniProt Q5XXA6, del476-501/F623A)
UniProt Q5XXA6, sequence (whole entry, unmodified, looked up): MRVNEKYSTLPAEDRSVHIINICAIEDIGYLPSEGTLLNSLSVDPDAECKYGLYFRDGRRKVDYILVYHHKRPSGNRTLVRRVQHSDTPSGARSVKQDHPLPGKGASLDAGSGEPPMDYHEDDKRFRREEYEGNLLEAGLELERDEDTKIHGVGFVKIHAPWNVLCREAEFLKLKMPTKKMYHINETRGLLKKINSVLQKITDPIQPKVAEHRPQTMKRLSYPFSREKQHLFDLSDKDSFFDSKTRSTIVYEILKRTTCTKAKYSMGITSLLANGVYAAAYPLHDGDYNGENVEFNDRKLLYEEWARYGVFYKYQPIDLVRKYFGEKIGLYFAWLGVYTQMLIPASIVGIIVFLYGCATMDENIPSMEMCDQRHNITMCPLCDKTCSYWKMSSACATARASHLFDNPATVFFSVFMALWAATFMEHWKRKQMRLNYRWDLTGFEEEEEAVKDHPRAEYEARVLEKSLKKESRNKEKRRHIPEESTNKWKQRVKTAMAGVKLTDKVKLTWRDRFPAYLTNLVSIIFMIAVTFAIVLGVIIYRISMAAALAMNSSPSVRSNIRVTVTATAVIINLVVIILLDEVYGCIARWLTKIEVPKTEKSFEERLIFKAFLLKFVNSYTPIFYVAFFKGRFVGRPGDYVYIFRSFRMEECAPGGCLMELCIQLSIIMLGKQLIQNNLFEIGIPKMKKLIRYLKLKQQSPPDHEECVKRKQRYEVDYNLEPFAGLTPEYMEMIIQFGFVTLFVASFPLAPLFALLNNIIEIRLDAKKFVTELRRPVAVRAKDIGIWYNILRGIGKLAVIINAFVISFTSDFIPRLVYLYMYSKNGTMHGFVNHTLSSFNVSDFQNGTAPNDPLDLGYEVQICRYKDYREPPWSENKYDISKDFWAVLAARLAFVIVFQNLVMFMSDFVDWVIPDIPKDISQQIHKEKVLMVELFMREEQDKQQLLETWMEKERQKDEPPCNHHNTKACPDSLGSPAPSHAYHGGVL
target	assay	setting	IC50 [µM]
ANO1 del476-501/F623A	–	membrane voltage -100 mV	29.8
Anoctamin-1 (ANO1, Homo sapiens, UniProt Q5XXA6, del476-501/R631D)	inhibitor	mutant R605D	26
Anoctamin-1 (ANO1, Homo sapiens, UniProt Q5XXA6, D383A/del476-501)	inhibitor	pore pocket mutant D383A at 100 mV, with: 300 nM Ca2+	4.95
Anoctamin-1 (ANO1, Homo sapiens, UniProt Q5XXA6, del476-501/F807A)	–	membrane voltage -80 mV	40.1
Anoctamin-1 (ANO1, Homo sapiens, UniProt Q5XXA6, del476-501/F803Y)	inhibitor	40 mV holding voltage	10.8
Anoctamin-1 (ANO1, Homo sapiens, UniProt Q5XXA6, del476-501/F628W)	inhibitor	80 mV holding voltage	13.9
Anoctamin-1 (ANO1, Homo sapiens, UniProt Q5XXA6, del476-501/R631I)	inhibitor	R605I mutant at -40 mV	22.8
ANO1 del476-501/F623A	inhibitor	mutant F597A at 100 mV, with: 300 nM Ca2+	8.81

Study 2 — organism: Sarcocystis neurona; effect on: parasite growth; concentration: 10 µM; notes: second screen; relative to: untreated
Compound	log2 fold change
CC1(C)S[C@@H]2[C@H](NC(=O)Cc3ccccc3)C(=O)N2[C@H]1C(=O)[O-].[K+]	0.51
CC1=C(C/C=C(\C)CCC[C@H](C)CCC[C@H](C)CCCC(C)C)C(=O)c2ccccc2C1=O	0.42
CN1C(=O)CC[C@H]1c1cccnc1	0.47
O=c1ncc(F)c[nH]1	0.00923
Cl.NC[C@H](O)c1ccc(O)c(O)c1	0.45
CC1CCN(CCCC(=O)c2ccc(F)cc2)CC1.Cl	0.42
Cc1nccn1CC1CCc2c(c3ccccc3n2C)C1=O.Cl (stereo not drawn)	0.42
COc1ccc(CN2CCN(C(c3ccc(F)cc3)c3ccc(F)cc3)CC2)c(OC)c1OC.Cl.Cl	-1.07

Study 3 — technique: competition with immobilised ligand; concentration: 1 µM
SMILES: C[C@H](NC(=O)c1cnc2n1[C@](C)(Cc1ccc(C#N)cc1)C(=O)N2c1cc(Cl)c(F)c(Cl)c1)C(=O)NC1(c2ccccn2)CC1
target	assay	remaining binding [%]
Insulin-like growth factor 1 receptor (IGF1R, Homo sapiens, UniProt P08069)	cell-free assay	99
Ankyrin repeat and protein kinase domain-containing protein 1 (ANKK1, Homo sapiens, UniProt Q8NFD2)	cell-free assay	100
Phosphatidylinositol 4,5-bisphosphate 3-kinase catalytic subunit beta isoform (PIK3CB, Homo sapiens, UniProt P42338)	cell-free assay	99
Serine/threonine-protein kinase 35 (STK35, Homo sapiens, UniProt Q8TDR2)	cell-free assay	100
Cyclin-dependent kinase 4 (CDK4, Homo sapiens, UniProt P11802)	cell-free assay	100
Mitogen-activated protein kinase 4 (MAPK4, Homo sapiens, UniProt P31152)	cell-free assay	100
Activin receptor type-2B (ACVR2B, Homo sapiens, UniProt Q13705)	cell-free assay	100
Focal adhesion kinase 1 (PTK2, Homo sapiens, UniProt Q05397)	cell-free assay	100
Receptor-type tyrosine-protein kinase FLT3 (FLT3, Homo sapiens, UniProt P36888, N841I)	cell-free assay	78
Tyrosine-protein kinase Tec (TEC, Homo sapiens, UniProt P42680)	binding	75
cAMP-dependent protein kinase catalytic subunit beta (PRKACB, Homo sapiens, UniProt P22694)	cell-free assay	75
Serine/threonine-protein kinase PAK 5 (PAK5, Homo sapiens, UniProt Q9P286)	cell-free assay	100
Tyrosine-protein kinase SYK (SYK, Homo sapiens, UniProt P43405)	cell-free assay	100

Single results of other studies
Compound	system	setting	quantity	result
COc1ccc(-c2c(Nc3ccccn3)[nH]c3c(C4=CCCCC4)c(-c4ccccc4)nn3c2=O)cc1	human patients, plasma	oral, 200 mg once daily, day 15, cycle 1, tau 24 h	AUC(0-tau) geometric mean	108 µg·h/mL

Some of these lines once more (study 3):
target	assay	remaining binding [%]
Insulin-like growth factor 1 receptor (IGF1R, Homo sapiens, UniProt P08069)	cell-free assay	99
Serine/threonine-protein kinase PAK 5 (PAK5, Homo sapiens, UniProt Q9P286)	cell-free assay	100
Phosphatidylinositol 4,5-bisphosphate 3-kinase catalytic subunit beta isoform (PIK3CB, Homo sapiens, UniProt P42338)	cell-free assay	99
